Results of several laboratories.
Each numbered part is a random draw from the data of one study; scales do not carry over between parts.

Set 1
Target: Sal-like protein 4, full length isoform A (SALL4, Homo sapiens, UniProt Q9UJQ4, residues 1-1053)
Chain of UniProt Q9UJQ4 (whole entry, looked up): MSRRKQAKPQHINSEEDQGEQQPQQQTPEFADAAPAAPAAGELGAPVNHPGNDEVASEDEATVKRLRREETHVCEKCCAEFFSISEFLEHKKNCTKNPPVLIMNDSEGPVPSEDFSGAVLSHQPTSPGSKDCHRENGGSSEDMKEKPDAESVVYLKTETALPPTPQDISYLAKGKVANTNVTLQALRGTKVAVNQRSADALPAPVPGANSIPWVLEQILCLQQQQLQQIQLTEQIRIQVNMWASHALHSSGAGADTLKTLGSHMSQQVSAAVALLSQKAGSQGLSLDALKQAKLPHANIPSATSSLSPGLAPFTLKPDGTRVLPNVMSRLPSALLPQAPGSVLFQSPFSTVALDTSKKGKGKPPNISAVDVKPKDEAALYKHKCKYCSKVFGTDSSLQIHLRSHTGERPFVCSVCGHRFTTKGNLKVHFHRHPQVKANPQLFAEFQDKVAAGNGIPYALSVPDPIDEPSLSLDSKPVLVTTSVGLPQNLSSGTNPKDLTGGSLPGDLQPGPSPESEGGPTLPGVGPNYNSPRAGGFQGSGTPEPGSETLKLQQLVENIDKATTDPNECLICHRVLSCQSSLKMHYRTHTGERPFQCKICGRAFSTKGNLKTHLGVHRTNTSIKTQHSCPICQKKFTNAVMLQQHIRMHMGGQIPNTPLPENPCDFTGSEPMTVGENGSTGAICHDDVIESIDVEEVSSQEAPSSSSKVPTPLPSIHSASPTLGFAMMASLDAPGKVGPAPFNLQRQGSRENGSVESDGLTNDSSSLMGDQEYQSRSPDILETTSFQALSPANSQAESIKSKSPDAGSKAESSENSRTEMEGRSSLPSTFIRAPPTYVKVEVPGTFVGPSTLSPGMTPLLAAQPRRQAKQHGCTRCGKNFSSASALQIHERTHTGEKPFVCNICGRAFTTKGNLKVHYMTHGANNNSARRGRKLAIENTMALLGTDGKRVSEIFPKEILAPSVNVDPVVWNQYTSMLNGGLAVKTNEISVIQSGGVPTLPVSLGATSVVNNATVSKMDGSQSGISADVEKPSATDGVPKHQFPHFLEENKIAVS
Technique: universal PBM
Form: double-stranded DNA, one strand shown
Matrix: in vitro
Tested at: 600 nM
Setting: 8-mer, flanks averaged, mean of replicates
Reading: higher = stronger binding
With `TAAGACCA` the E-score was 0.0881.
`ATACCTCG` gave an E-score of 0.175.
With `CCACTAGC` the E-score was -0.105.
The E-score of `AGATTTAG` is reported as 0.0715.
With `CGCACCTA` the E-score was -0.104.
The E-score of `ATAATTAC` is reported as 0.437.
For `GACCACCA`, the E-score was -0.16.
For `ACCAACGG`, the E-score was -0.285.
For `ACTTCATC`, the E-score was 0.13.
The E-score of `CAGGTTCA` is reported as -0.114.
`CCTCAAGA` gave an E-score of 0.144.
With `GGTTTACA` the E-score was 0.142.
The E-score of `ACGCTTTA` is reported as 0.0554.
For `TGACAGAA`, the E-score was 0.172.
`GGGACTCA` gave an E-score of -0.368.
For `ATGTGAGC`, the E-score was -0.117.
`CCTAACTC` gave an E-score of -0.247.
The E-score of `AAACCGAC` is reported as -0.126.
With `ATACAAGG` the E-score was 0.168.
The E-score of `ACTTCGTG` is reported as -0.00622.
`TGGCACAA` has an E-score of 0.025.
With `ACACTCGC` the E-score was -0.0923.

Set 2
Target: RING finger protein unkempt homolog, zinc fingers 1-6, GST-SBP tag (UNK, Homo sapiens, UniProt Q9C0B0, residues 30-357)
Chain of UniProt Q9C0B0 (30-357, looked up): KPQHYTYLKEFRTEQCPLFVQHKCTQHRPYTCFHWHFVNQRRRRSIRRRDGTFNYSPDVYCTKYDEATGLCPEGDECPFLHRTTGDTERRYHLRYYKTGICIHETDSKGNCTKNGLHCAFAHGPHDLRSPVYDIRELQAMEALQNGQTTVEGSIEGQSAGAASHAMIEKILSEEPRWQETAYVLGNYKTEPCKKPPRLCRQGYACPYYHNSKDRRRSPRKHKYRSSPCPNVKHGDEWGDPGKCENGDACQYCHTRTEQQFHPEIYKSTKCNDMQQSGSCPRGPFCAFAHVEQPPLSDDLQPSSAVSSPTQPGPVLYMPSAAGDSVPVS
Technique: RNA Bind-n-Seq
Form: RNA
Matrix: in vitro
Tested at: not given
Setting: RNA with constant flanks, ends assumed
Relative to: input RNA pool
Reading: higher = stronger binding
For `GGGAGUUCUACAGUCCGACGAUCGUGACAAUUCCAGAGAGCGCACAUAUAUUCACCAGCUUUUAUGCUAAAACAAAAUCGCUAUCCGUUAAUCCAGCACUCUUUUUAAACCCUGAAGACUAUAACCAUCUAAUGGGUUAUGACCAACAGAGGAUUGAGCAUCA`, the bound/input enrichment was 0.215 ratio.
`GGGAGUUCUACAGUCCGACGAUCUUUAUGCACAUACUUAAAGGACAGAAAUGUCUGGUAAAGUAAUUGUUAAAUAAUGAUAUGCCGCUUUUUAACUUUUUAAAUAAAUAAGAUUUUUUAAUGUGGGUCUCCCUCAGGGUUGUUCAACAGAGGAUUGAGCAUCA` has a bound/input enrichment of 0.727 ratio.
`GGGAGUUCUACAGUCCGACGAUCUGUACCCAGAUUCUAAGAACCUGGAGAAGGAUUAGCAGUUCUUAGUAAGUUUACUGUGUACCGGAACGGUUUGUAUUUCAUUACAGCUAUUCAUCUUUUCUACAUUAAAAAUAUUUUUCUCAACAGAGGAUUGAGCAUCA` gave a bound/input enrichment of 1.83 ratio.
`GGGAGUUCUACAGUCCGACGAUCAGAGUCCAAUAAAAUCGCUGCCUCCCAGCUGUUUGGAUCACAGAGAGGUUUUUGCACUGCCACCGGGCGCCCCCGUGAGGCGCUUCGCCCCCCACCAUGUUCCAGCGCCUCUCCAGCCUCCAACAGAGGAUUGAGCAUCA` gave a bound/input enrichment of 0.414 ratio.
`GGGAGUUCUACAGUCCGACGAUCCACCUACUAACCUCACUGUCCUACAAAGUUCGAAUGCAAGCACUGAAAUGUUUCUCAGUUUCCGCUUUUGAAAACCCCCAGGUAUCGAUGACCCUGGUAAAUGUUUUGGUUGAUGGAGAACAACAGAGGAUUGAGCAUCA` has a bound/input enrichment of 0.233 ratio.
The bound/input enrichment of `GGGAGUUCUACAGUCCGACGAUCUGCGUCCUUUUUCGUUUUUCGGAUGAUGCCUUCAAUACUACCUUUAUUUCCACCACCGGAACCGACUUCAAGAUCAAAACAGUUGAAUUACAAGGAAAGAAGAUCAAGCUACAGAUAUGGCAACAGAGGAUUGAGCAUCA` is reported as 0.174 ratio.
`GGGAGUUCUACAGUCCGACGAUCGACCUAUAUCACAAAGGCCUCCUUAAAUUUUCACUGGAUGCCGUAUCUCUGAAGGAUACUCCCGUUAUGCUGGUUGUUGACAUGUCAAAGCCUUGGACUGCUUUGGAUUCUUUACAGAAACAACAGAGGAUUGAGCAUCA` has a bound/input enrichment of 0.527 ratio.
For `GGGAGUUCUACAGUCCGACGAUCUUCAUUCAUGCUAAUGUUGACAUUGACUUAAUUAUCACAGAAGAACCUGAGAUUGGCAAUACCGAAAAACCAGUAGAAAUUUUUCAUAUAAUAGAACAUUUUUGUCUUGGUAGAAGACGCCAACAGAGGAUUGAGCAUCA`, the bound/input enrichment was 3.76 ratio.

Set 3
Target: Fragile X messenger ribonucleoprotein 1, C-terminal low-complexity region (Fmr1, Mus musculus, UniProt P35922)
Technique: RNA Bind-n-Seq
Form: RNA
Matrix: in vitro
Tested at: 200 nM
Setting: whole 134-nt RNA, ends assumed
With: 150 mM KCl
Relative to: input library
Reading: higher = stronger binding
With `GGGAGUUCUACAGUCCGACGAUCACCAUGCAGGUGGGCAUCUUUGGGAAGUGGGGCAAGGGGGGGAUAGGGAGGGGGGUAACACUUUGGUAACAGGUGGUCCCAGGUCGUUUCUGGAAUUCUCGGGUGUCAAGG` the log2 enrichment was 0.349.
The log2 enrichment of `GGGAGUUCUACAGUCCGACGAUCUCCUGUGCUACACAUCGUAUGUACCGAAUCAAACCCCCAAAUUUUUUUAAAUUUUUAAAAAAGUAUUAUGUUACGCCGUUCGGAUCUGCAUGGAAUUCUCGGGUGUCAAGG` is reported as 0.495.
`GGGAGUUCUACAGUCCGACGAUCAAGUCCUGUGCUACACAUCGUAUGUACCGAAUCGGGCCCCGGGGCCCCGGCCCCGGAAAGUAUUAUGUUACGCCGUUCGGAUCUGCACUUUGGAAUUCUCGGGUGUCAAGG` has a log2 enrichment of -0.896.
For `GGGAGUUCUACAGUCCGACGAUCCAAGUCCUGUGCUACACAUCGUAUGUACCGAAUCGGGCCCGGGGCCCGGGCCCGGAAAGUAUUAUGUUACGCCGUUCGGAUCUGCACUUCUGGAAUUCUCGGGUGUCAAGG`, the log2 enrichment was -0.526.
`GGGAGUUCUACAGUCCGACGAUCCAUCAAAAUAGCUACAAACCAUACUAAAUUAUUCCAUUUGCAACUUAUCCCCAACAGGUAUGUUCUAAAAAUAGUUUUUUUUUGUCAUUUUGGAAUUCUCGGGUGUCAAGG` gave a log2 enrichment of 0.246.
`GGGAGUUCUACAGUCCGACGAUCGCAGGAAGUAAAAACAAAUGGAAAUGCUUCGGAUAGUGGCAGGGGUGGGGGUUGCUAAGGAAAGGGUGGGAUGUGAGUGGGUAAAGAGUUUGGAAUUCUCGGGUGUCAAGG` has a log2 enrichment of 0.333.
`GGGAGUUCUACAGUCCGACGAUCUCAAGUCCUGUGCUACACAUCGUAUGUACCGAAUCGGGUUUGGGUGGGAAAGGGAAAGUAUUAUGUUACGCCGUUCGGAUCUGCACUUCCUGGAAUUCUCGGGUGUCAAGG` has a log2 enrichment of 1.19.
`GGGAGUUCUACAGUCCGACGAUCUAACUUUAGAGGAGGAUCUGAUGGAUAUGGCAGUGGGCGUGGAUUUGGGGAUGGCUAUAAUGGGUAUGGAGGAGGACCUGGAGGUGGCAAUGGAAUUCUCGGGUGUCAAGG` has a log2 enrichment of 0.464.
`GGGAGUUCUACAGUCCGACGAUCAGUCCUGUGCUACACAUCGUAUGUACCGAAUCGGGGAAAAGGGAAAAGGGGAAAAGGAAAGUAUUAUGUUACGCCGUUCGGAUCUGCACUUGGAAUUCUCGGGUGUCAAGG` has a log2 enrichment of 0.145.

Set 4
Target: RNA binding protein fox-1 homolog 2, RRM domain, GST-SBP tag (RBFOX2, Homo sapiens, UniProt O43251-10, residues 100-194)
Technique: RNA Bind-n-Seq
Form: RNA
Matrix: in vitro
Tested at: 365 nM
Setting: natural RNA segment, single round, ends assumed
Relative to: no-protein control
Reading: higher = stronger binding
Residues (chain): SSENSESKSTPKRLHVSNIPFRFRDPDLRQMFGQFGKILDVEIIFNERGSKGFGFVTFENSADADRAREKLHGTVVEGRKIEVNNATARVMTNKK
`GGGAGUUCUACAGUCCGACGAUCUGAGAAGGUAAAGAAGAGGCAUGUCCAGUAUGCUUUGCAGGGUGUGUUUGCUCUUUUCCAUGCCCAUGCAACCCAGAUUGGGGUGGAGCAGGAAGGAGCUCUUUUCUGUUUGGAAUUCUCGGGUGCCAA` — result for “RBNS enrichment (R)”: 0.511.
`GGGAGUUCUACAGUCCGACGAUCUUCUCCUGUUUCAUCUGGGUCAGUUUGGCCAUAAUUCUGGGGUCAGGCCAGGCCUGGGUCCUGCCCUCCCAUGGGGUGACUCAUGACCCCUCCAGCCAGGACUCUCCUACUGGAAUUCUCGGGUGCCAA` — result for “RBNS enrichment (R)”: 0.239.
For `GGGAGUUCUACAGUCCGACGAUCAGCAUGGGAGCCCUUCUCUUCUGAGCCUUGCGUGCCCGUGGACCAGGGUGAGGGCACAGGCUCCAGAACUGCCCAGGAAGGGUGCUCUUACUGCUGGAGCAUGCUACUGUUGGAAUUCUCGGGUGCCAA`, “RBNS enrichment (R)” read 8.98.
For `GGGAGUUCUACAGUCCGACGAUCCAUUGUCACAUUAUUGACACAGUAAUUAGAAACCCACUGUGGCCUCUUCAGGAGUGUGCUUAUGUCUGUAAAUUGCUGGAGAGGGGGUAGAUGGGCCAGGACAACCAGCAUGGAAUUCUCGGGUGCCAA`, “RBNS enrichment (R)” read 2.32.
Under “RBNS enrichment (R)”, `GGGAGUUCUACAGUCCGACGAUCUGCACUUUAACCAGCCCUGUGAUCCGUACGAGUGUAGCAGCAAGAGGACUCUGUUGACAGGCACGUUUAUUGUUGGGUUAUUUGUUCCAGAGCACCCCAGUCUGUGACAAUGGAAUUCUCGGGUGCCAA` is recorded as 2.42.
`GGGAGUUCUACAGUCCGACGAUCUCACACUUUGCUUGUAUUUUAAAAGGAGGAUAUAUUUGCACUUAUGUAUACUUUUACAGUUUGCCAAAAUAUUUUGUUGUAAAAUUUUUUUUCAAUAAAAUGUAUAUAACUGGAAUUCUCGGGUGCCAA`: “RBNS enrichment (R)” 26.1.
`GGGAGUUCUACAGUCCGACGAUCACUAUUUGAUGUACAGAAUAGAAAACAUUUAAAUAUUGAAUUAGGCACUCAAAACCAACAAAGAGAAUGAGCAAUCAUCUUAAAGAUGGAACCUCUUAAAGGACAACUUUUGGAAUUCUCGGGUGCCAA`: “RBNS enrichment (R)” 0.277.
`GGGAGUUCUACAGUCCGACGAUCCCAACUGUGGCAUCAAUACUGCAACUUAAACUUGACAAUCAUGGUUUGCUGGUCCUCAAACAGGCACUGAAAUCUCAGUAUGGGUAUACGAUUUAAUAAUCGGCCCCUCCUGGAAUUCUCGGGUGCCAA`: “RBNS enrichment (R)” 0.677.
